Measured values pooled from the literature.
Numbered parts are unrelated; each lists some results of a single study.
Sequence of UniProt Q00526 (whole entry, looked up): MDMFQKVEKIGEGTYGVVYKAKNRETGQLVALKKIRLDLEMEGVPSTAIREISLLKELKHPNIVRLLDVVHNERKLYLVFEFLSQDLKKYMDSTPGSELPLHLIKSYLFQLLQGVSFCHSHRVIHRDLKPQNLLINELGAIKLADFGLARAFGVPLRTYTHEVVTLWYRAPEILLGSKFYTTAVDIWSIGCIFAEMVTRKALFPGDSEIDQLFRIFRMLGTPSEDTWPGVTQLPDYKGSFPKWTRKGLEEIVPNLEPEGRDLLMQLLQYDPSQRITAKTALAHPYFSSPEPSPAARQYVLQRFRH
Sequence of UniProt Q5VT25 (whole entry, looked up): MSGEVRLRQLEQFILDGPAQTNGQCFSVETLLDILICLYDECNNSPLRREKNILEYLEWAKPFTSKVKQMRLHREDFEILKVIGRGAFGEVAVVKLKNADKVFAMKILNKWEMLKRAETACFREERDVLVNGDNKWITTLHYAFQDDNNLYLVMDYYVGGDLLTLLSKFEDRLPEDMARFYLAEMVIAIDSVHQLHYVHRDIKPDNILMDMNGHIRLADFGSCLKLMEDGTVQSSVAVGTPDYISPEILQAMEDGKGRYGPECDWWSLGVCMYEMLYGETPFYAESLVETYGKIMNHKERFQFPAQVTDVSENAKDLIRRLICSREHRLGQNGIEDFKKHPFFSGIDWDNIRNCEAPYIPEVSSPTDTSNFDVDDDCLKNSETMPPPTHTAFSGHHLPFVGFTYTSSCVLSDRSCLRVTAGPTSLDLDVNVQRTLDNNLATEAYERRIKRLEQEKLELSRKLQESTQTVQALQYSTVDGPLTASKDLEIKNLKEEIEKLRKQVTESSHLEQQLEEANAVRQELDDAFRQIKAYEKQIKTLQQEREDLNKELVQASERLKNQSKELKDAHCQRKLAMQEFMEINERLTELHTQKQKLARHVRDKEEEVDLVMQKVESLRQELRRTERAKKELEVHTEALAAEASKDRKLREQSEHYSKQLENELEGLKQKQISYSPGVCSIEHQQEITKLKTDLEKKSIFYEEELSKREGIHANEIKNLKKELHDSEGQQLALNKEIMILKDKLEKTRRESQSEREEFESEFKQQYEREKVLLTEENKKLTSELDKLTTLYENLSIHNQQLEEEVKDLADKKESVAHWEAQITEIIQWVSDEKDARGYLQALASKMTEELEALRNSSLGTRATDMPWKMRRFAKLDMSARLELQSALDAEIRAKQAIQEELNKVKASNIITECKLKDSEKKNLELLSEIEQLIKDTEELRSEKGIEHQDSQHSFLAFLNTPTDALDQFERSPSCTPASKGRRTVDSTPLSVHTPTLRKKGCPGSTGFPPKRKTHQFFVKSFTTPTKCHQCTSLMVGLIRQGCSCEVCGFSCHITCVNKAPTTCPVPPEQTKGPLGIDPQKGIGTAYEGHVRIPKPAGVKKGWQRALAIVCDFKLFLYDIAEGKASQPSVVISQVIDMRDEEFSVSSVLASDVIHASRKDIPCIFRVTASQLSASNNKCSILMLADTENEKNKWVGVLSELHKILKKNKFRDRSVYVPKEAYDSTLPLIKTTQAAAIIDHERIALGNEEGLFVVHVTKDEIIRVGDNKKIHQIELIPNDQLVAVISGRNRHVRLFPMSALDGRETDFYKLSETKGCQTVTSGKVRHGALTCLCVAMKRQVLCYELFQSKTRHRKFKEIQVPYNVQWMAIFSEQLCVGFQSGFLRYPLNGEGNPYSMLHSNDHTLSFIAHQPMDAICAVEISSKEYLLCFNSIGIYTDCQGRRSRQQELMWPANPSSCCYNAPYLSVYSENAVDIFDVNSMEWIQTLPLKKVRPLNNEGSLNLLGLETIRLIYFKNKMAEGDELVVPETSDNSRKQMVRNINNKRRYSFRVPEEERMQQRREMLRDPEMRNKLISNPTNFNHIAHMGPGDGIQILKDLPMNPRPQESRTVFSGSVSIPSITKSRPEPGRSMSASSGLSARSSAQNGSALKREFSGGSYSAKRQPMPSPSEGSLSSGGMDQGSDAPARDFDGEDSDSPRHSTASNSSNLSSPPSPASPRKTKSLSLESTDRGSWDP

Study 1 — read-out: enzyme activity; mode: inhibitor; tested at: 10 µM
Target: Calcium/calmodulin-dependent protein kinase type II subunit alpha (CAMK2A, Homo sapiens, UniProt Q9UQM7)
Sequence of UniProt Q9UQM7 (whole entry, looked up): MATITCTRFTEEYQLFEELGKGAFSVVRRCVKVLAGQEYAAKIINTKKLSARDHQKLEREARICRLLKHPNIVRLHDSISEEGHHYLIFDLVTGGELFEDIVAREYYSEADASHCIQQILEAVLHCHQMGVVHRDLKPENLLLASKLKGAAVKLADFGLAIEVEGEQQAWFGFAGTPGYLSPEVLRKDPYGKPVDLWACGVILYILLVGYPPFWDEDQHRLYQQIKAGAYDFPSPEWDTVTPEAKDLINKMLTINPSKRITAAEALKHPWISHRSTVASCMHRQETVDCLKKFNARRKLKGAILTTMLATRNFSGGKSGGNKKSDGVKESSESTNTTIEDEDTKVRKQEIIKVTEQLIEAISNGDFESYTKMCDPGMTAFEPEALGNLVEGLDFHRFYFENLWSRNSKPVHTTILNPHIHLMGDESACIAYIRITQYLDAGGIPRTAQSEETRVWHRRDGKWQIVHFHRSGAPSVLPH
For NCCP(=O)(O)O, the inhibition was -21%.
CCN1C[C@]2(COC)CC[C@H](OC)[C@]34C1C([C@H](OC)[C@H]23)[C@]1(OC(C)=O)[C@H]2[C@@H](OC(=O)c3ccccc3)[C@](O)(C[C@H]24)[C@@H](OC)[C@@H]1O gave an inhibition of 9%.
CC(=O)C=Cc1ccccc1 gave an inhibition of -28%.
COc1ccc(-c2cc(=O)c3c(OC)c(OC)c(OC)cc3o2)cc1 gave an inhibition of -13%.
For C=C1[C@@H]2CC[C@H]3[C@]4(C)C[C@H](O[C@H]5O[C@H](CO)[C@@H](OS(=O)(=O)O)[C@H](OS(=O)(=O)O)[C@H]5OC(=O)CC(C)C)C[C@@H](C(=O)O)[C@H]4CC[C@]3(C2)[C@H]1O, the inhibition was -12%.
With CO[C@H]1[C@H](O)[C@H](O[C@H]2CC[C@@]3(C)[C@H](CC[C@@H]4[C@@H]3CC[C@]3(C)[C@@H](C5=CC(=O)OC5)CC[C@]43O)C2)O[C@@H](C)[C@@H]1O the inhibition was 32%.

Study 2 — host: female IFN-γ knockout C57BL/6 mice; sample: plasma; route: oral; dose: 10 mg/kg
Compound: CNC(=O)c1ccc(-c2cnn3ccc(C(=O)N(C)c4ccc(Cl)c(C(=O)OC)c4)cc23)cc1
0.5 h — “mean plasma concentration”: 2.94 nM.
The “mean plasma concentration” was 0.612 nM (7 h).
The “mean plasma concentration” was 0.822 nM (0.25 h).
It gave 8.4 nM for “mean plasma concentration” (1 h).
The “mean plasma concentration” was 1.99 nM (3 h).

Study 3 — read-out: enzyme activity; mode: inhibitor; tested at: 0.5 µM; baseline: control
Compound: COC[C@H]1OC(=O)c2coc3c2[C@@]1(C)C1=C(C3=O)[C@@H]2CCC(=O)[C@@]2(C)C[C@H]1OC(C)=O
It gave 87.7% for remaining activity (Insulin receptor (INSR, Homo sapiens, UniProt P06213)).
It gave 92.3% for remaining activity (FYN (Homo sapiens, UniProt P06241)).
For PASK (Homo sapiens, UniProt Q96RG2): remaining activity read 87.9%.
For CDC42BPA (Homo sapiens, UniProt Q5VT25): remaining activity read 89.2%.
For NEK11 (Homo sapiens, UniProt Q8NG66): remaining activity read 95.1%.
PKN1 (Homo sapiens, UniProt Q16512) — remaining activity: 94.2%.
The remaining activity was 95.2% (Cyclin-dependent kinase 3, with cyclin E (CDK3, Homo sapiens, UniProt Q00526)).
AKT1 (Homo sapiens, UniProt P31749) — remaining activity: 95.4%.
ITK (Homo sapiens, UniProt Q08881) — remaining activity: 90%.
FGR (Homo sapiens, UniProt P09769) — remaining activity: 87.9%.
It gave 108% for remaining activity (HIPK1 (Homo sapiens, UniProt Q86Z02)).

Study 4 — read-out: enzyme activity; mode: inhibitor; tested at: 77 µM; baseline: untreated
Target: DNA polymerase theta, ATPase domain (POLQ, Homo sapiens, UniProt O75417)
Sequence of UniProt O75417 (whole entry, unmodified, looked up): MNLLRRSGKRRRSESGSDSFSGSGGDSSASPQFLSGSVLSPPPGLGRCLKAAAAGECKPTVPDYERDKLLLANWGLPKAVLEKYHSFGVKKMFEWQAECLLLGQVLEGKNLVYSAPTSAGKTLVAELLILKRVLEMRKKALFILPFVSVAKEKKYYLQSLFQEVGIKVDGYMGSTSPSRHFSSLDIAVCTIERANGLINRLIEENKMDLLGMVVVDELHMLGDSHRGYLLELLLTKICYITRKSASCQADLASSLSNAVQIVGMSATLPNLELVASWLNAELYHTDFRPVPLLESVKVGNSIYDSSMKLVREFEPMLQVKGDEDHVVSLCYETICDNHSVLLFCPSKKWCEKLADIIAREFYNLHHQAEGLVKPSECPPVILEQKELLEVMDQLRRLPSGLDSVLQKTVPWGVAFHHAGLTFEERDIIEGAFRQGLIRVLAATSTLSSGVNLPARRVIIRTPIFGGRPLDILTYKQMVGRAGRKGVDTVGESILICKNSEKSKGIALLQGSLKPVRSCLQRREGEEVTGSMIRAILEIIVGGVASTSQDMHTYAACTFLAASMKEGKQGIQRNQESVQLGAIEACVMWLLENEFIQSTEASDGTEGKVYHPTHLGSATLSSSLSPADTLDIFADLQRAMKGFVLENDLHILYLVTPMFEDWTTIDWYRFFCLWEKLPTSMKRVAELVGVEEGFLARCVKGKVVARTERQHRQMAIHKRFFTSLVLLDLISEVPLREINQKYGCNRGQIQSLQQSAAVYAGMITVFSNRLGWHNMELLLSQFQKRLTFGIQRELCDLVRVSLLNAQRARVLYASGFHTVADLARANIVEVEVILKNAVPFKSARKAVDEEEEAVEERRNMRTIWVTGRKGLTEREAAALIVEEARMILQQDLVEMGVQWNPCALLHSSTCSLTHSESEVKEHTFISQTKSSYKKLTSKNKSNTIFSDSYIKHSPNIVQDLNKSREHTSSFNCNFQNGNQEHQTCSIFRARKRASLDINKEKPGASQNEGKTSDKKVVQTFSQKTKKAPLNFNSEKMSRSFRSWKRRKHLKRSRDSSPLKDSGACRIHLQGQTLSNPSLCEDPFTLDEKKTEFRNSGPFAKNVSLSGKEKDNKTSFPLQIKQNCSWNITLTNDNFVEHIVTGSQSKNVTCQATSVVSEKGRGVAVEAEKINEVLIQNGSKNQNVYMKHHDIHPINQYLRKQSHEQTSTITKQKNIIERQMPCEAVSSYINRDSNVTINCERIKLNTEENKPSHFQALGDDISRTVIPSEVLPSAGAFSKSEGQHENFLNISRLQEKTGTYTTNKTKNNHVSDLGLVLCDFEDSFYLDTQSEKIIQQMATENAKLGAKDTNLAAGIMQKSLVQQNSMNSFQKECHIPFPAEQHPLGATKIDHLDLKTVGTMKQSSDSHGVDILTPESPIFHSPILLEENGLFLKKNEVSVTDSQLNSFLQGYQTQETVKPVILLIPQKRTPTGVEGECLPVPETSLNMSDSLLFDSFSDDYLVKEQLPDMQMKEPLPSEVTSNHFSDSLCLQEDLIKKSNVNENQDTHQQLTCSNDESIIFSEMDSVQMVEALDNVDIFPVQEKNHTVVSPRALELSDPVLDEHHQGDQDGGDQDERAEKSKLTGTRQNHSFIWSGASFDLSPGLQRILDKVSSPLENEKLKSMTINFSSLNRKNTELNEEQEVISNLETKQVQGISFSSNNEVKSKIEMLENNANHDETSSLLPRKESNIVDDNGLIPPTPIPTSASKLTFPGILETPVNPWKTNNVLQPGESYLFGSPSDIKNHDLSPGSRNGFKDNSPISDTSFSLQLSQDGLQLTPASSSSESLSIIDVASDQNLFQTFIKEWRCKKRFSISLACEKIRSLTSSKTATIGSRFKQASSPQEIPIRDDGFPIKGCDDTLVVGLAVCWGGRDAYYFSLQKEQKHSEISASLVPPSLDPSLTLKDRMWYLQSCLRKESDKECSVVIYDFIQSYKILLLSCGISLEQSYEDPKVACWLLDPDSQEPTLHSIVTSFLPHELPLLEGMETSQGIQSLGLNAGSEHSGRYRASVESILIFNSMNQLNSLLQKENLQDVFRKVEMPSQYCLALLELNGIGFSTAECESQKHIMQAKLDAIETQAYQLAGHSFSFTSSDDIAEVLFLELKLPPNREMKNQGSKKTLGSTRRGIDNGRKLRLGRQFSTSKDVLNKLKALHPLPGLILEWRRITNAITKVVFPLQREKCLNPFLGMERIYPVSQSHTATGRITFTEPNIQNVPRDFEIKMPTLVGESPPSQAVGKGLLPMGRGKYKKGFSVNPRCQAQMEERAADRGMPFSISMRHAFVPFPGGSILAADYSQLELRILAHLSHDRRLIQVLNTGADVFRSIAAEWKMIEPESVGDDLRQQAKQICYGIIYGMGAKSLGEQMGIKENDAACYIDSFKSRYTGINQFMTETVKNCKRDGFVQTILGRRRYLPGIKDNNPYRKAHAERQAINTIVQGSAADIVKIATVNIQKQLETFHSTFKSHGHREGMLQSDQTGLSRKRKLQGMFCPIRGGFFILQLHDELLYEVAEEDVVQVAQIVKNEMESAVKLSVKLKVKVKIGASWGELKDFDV
For C=C(C)[C@@H]1[C@H]2OC(=O)[C@@H]1[C@]1(O)C[C@H]3O[C@]34C(=O)O[C@H]2[C@]14C, the remaining activity was 106%.
c1ccc2nc(N3CCNCC3)ccc2c1 gave a remaining activity of 104%.
With CC(=O)[C@H]1CC[C@H]2[C@@H]3CC[C@H]4C[C@](C)(O)CC[C@]4(C)[C@H]3CC[C@]12C the remaining activity was 103%.
For CCN1C[C@]2(COC)CC[C@H](O)[C@]34C1[C@@](O)([C@@H](OC)[C@H]23)[C@@]1(O)C[C@H](OC)[C@H]2C[C@@H]4[C@@H]1[C@H]2OC, the remaining activity was 100%.
For CCCN1CCC[C@@H](c2cccc(O)c2)C1, the remaining activity was 99.2%.
CN1[C@@H]2CC[C@H]1CC(O)C2 (some centres unmarked) has a remaining activity of 102%.
The remaining activity of CC(C)N(CCNC(=O)CN1CCCC1=O)C(C)C is reported as 94.8%.

Repeated from above (study 4):
For CCN1C[C@]2(COC)CC[C@H](O)[C@]34C1[C@@](O)([C@@H](OC)[C@H]23)[C@@]1(O)C[C@H](OC)[C@H]2C[C@@H]4[C@@H]1[C@H]2OC, the remaining activity was 100%.
For CCCN1CCC[C@@H](c2cccc(O)c2)C1, the remaining activity was 99.2%.
